Assay results collected from several papers.
Protocols differ between the studies behind these lines. Several values in a cell are separate wells, animals, samples, runs or records. Numbers after ± are the reported error.
PDGFRB: Platelet-derived growth factor receptor beta (PDGFRB, Homo sapiens, UniProt P09619)
CTSL: Procathepsin L (CTSL, Homo sapiens, UniProt P07711)
ERN2 RNase domain: Serine/threonine-protein kinase/endoribonuclease IRE2, RNase domain (ERN2, Homo sapiens, UniProt Q76MJ5)
KDR: Vascular endothelial growth factor receptor 2 (KDR, Homo sapiens, UniProt P35968)
MAL12: Alpha-glucosidase MAL12 (MAL12, Saccharomyces cerevisiae S288c, UniProt P53341)
HDAC10: Polyamine deacetylase HDAC10 (HDAC10, Homo sapiens, UniProt Q969S8)
ALDH1A1: Aldehyde dehydrogenase 1A1 (ALDH1A1, Homo sapiens, UniProt P00352)
Dipeptidyl peptidase 8: Dipeptidyl peptidase 8 (Homo sapiens, UniProt Q6V1X1)
WRN: Bifunctional 3'-5' exonuclease/ATP-dependent helicase WRN (WRN, Homo sapiens, UniProt Q14191)

Structure (SMILES)	target	test	system	conditions	endpoint	value
CCCc1nc2ccc(N(Cc3ccco3)C(=O)c3ccccc3)cc2c(=O)n1Cc1ccc(-c2ccccc2-c2nnn[nH]2)cc1	AGTR2 (Homo sapiens, UniProt P50052, I211A)	ligand displacement, radioligand		cell membranes	Ki	0.00759 µM
COc1cc2nccc(Oc3ccc(NC(=S)NCCc4ccccc4)c(Cl)c3)c2cc1C(N)=O	PDGFRB				IC50	0.186 µM
O=C(Nc1ccc(-c2nnc(-c3ccco3)o2)cc1)c1ccco1	Nucleoside transporter 1 (Plasmodium vivax, UniProt A5K8B0)	yeast growth	purine auxotrophic yeast expressing target	15 to 17 h, together with: adenosine 1 mM	IC50	1.17 ± 0.188 µM
O=C(NC1CCCC1)c1cccc(S(=O)(=O)NC2CCCC2)c1	Ectonucleoside triphosphate diphosphohydrolase 2 (Homo sapiens, UniProt Q9Y5L3)	enzyme activity, inhibitor, absorbance			IC50	46.9 µM
O=C1C2=C(Nc3ccccc3SC2C2CC2)c2ccccc21 (racemic)	Type II NADH dehydrogenase (Plasmodium falciparum, UniProt Q8I302)	enzyme activity, inhibitor, fluorescence NAD+ quantitation	recombinant enzyme		IC50	> 20 µM
N#Cc1nc(N2CCOCC2)nc(N(Cc2ccccc2[N+](=O)[O-])CC2CCCNC2)n1 (stereo not shown)	CTSL	enzyme activity, inhibitor, fluorescence			IC50	1.24 µM
NC1CCC(Nc2nccc(-c3cccnc3Oc3ccc(NS(=O)(=O)c4ccccc4Cl)c4ccccc34)n2)CC1 (stereo not shown)	ERN2 RNase domain	RNase activity, inhibitor		together with: XBP1 mini-substrate	IC50	0.015 ± 0.002 µM
CCn1c(-c2cc(NC(=O)c3cnccn3)n[nH]2)cc2ccc(OC)cc21	CSNK2A2 (Homo sapiens, UniProt P19784)	enzyme activity, inhibitor, ADP detection			IC50	2.6 µM
COc1cc2nccc(Oc3ccc(NC(=S)Nc4ccc(F)cc4)c(Cl)c3)c2cc1C(N)=O	KDR				IC50	0.105 µM
O=C(O)CCC(=O)NNC(=O)c1ccccc1	Egl nine homolog 1 (EGLN1, Homo sapiens, UniProt Q9GZT9)	inhibitor, AlphaScreen		bimodal curve, rough estimate, together with: 2 µM 2-oxoglutarate	IC50	> 300 µM
C=CC1C(OC2OC(CO)C(O)C(O)C2O)OC=C(C(=O)OC)C1C=CCC(=O)OC (stereo not shown)	MAL12	enzyme activity, inhibitor, absorbance			IC50	> 100 µM
O=c1c2ccccc2on1-c1ccccc1	HDAC10	enzyme activity, inhibitor			IC50	> 10 µM
CCNC(=O)N1CCC(Oc2nc3c(c(=O)n(C)c(=O)n3C)n2Cc2cccc(C)c2)CC1	ALDH1A1				IC50	0.441 ± 0.212 µM
COc1cc(CCC(C)=O)ccc1O	mAb 4-AT4	antibody binding, indirect competitive ELISA		together with: coating antigen hapten 1-OVA	IC50	> 4 mg/L
Oc1cc2c(cc1O)C(c1ccccc1)CNCC2 (racemic)	Carbamate kinase (Giardia intestinalis, UniProt A8BB85)	enzyme activity, inhibitor, coupled luminescence			IC50	3.26 µM
NC(=O)c1ccc(-c2nc(-c3ccc4c(c3)OCCO4)c(-c3ccccn3)[nH]2)cc1	CSNK1G3 (Homo sapiens, UniProt Q9Y6M4)	target engagement in cells, BRET			IC50	> 30 µM
OC(c1ccccc1)(c1ccccc1)c1ccccc1C(F)(F)F	KCNN4 (Homo sapiens, UniProt O15554)	ion current, inhibitor, patch clamp			IC50	0.7 µM
C[C@@H]1NC(=O)[C@H](CCCNC(=N)N)NC(=O)[C@H](CCCCN)NC(=O)[C@@H](Cc2ccccc2)NC(=O)[C@H](CC(=O)O)NC1=O	Integrin alpha-V/beta-3 (Homo sapiens, UniProt P05106+P06756)	ligand displacement			IC50	> 5 µM
COc1cc2nccc(Oc3ccc(NC(=S)NCc4ccc(F)cc4)c(Cl)c3)c2cc1C(N)=O	KDR				IC50	0.207 µM
CCCCCCCCCCCCCC(=S)NCCCC[C@H](NC(=O)[C@H](CCCNC(=N)N)NC(=O)[C@H](C)N)C(=O)N[C@@H](CO)C(=O)N[C@H](C(=O)O)[C@@H](C)O	SIRT6 (Homo sapiens, UniProt Q8N6T7)				IC50	1.7 µM
Nc1nc2c(c(=O)[nH]1)[n+](Cc1ccc(F)c(F)c1)cn2[C@@H]1O[C@H](COP(=O)(O)O)[C@@H](O)[C@H]1O	NT5C3B (Homo sapiens, UniProt Q969T7)	enzyme activity, inhibitor, absorbance		pH 7.5	IC50	10.8 µM
O=C1OC(c2ccc(O)cc2)Cc2cccc(OC3OC(CO)C(O)C(O)C3O)c21 (stereo not shown)	MAL12	enzyme activity, inhibitor, absorbance			IC50	> 100 µM
COCc1cc2c(cn1)CN(C(=O)Nc1nc(-c3ccc(F)cc3)ccc1N)C2	HDAC5 (Homo sapiens, UniProt Q9UQL6)	deacetylase activity, inhibitor, recombinant enzyme			IC50	> 30 µM
CCC(c1nnnn1Cc1cccs1)N1CCN(c2nc3cc(N)cc(F)c3s2)CC1 (stereo not shown)	Deoxyribonuclease-1 (DNASE1, Bos taurus, UniProt P00639)	enzyme activity, inhibitor, fluorescence DNA degradation		pH 7.5, together with: FITC-labelled DNA substrate	IC50	45 µM
O=C(O[C@H](CO)C(F)(F)F)N1C[C@@H]2[C@H](C1)[C@H]2c1ccn(-c2ccc(F)cn2)n1	Mgll (Mus musculus, UniProt O35678)	enzyme activity, ABPP with FP-rhodamine	mouse brain lysate	30 min preincubation, 37 °C	IC50	0.0071 µM
C1=[N+]2CCCC[N+]3=Cc4ccc5[n]4[Au-]23[n]2c1ccc2-c1nc2ccccc2nc1-5.F[P-](F)(F)(F)(F)F	DNA topoisomerase 1 (TOP1, Homo sapiens, UniProt P11387)	enzyme activity, inhibitor			IC50	9.2 µM
O=C(NCc1cn([C@H]2C[C@H](O)[C@@H](COP(=O)(O)OCC3CC(O)OC3O)O2)c(=O)[nH]c1=O)c1cc2cccc(O)c2cc1O (mixture of isomers)	DNA polymerase beta (POLB, Homo sapiens, UniProt P06746)	enzyme activity, inhibitor			IC50	18.7 µM
O=C(NCCCNC(=O)c1cc(Nc2nccc(-c3ccn([C@H](CO)c4ccc(Cl)c(F)c4)c(=O)c3)n2)ccn1)OC1CC/C=C/CCC1 (stereo partly shown)	MAPK1 (Homo sapiens, UniProt P28482)	ATF2-GFP phosphorylation, inhibitor, TR-FRET			IC50	0.028 µM

Structure (SMILES)	target	test	system	conditions	endpoint	value
CC(C)C[C@@H]1NC(=O)[C@H]([C@@H](C)O)NC(=O)[C@H](Cc2ccccc2)NC(=O)CNC(=O)[C@H](Cc2c[nH]c3ccccc23)NC(=O)[C@H](Cc2c[nH]cn2)NC(=O)[C@H](C)NC(=O)[C@H]([C@@H](C)O)NC(=O)[C@H](C)NC(=O)C[C@@H](C(N)=O)NC1=O	MMP2 (Homo sapiens, UniProt P08253)	inhibitor		1 h preincubation, 37 °C, together with: APMA-activated enzyme	IC50	9.28 µM
N#C/C(=C\c1cccc(-c2cccc3[nH]ncc23)c1)C(N)=O	TYK2 (Homo sapiens, UniProt P29597)	kinase activity, inhibitor		up to highest tested, together with: ATP at Km	IC50	> 10 µM
CCC1(CC)C(=O)N(c2cccc(CN3CCN(c4cc(C)nc5ccc(Br)cc45)CC3)c2)C1=O	Dipeptidyl peptidase 8	cell-free assay, inhibitor			IC50	0.292 µM
Cc1ccc(NC(=O)CNS(=O)(=O)c2nc(-c3ccc(OC(F)(F)F)cc3)cc(C(F)(F)F)n2)cc1	WRN	ATPase activity, inhibitor, ADP-Glo		together with: ATP 1 mM	IC50	0.894 µM
CC(/C=C/C(=O)NO)=C\[C@@H](C)C(=O)c1ccc(N(C)C)cc1	PTPN11 (Homo sapiens, UniProt Q06124, E76K)	enzyme activity, inhibitor, fluorescence			IC50	> 50 µM
CC(C)CCN(Cc1ccccn1)c1nc(C#N)nc(N2CCOCC2)n1	CTSL	enzyme activity, inhibitor, fluorescence			IC50	0.033 µM
O=C(O)C(CO)NCc1cc(Cl)c(OCc2cccc(-c3ccccc3)c2Br)cc1OCc1cccnc1 (stereo not shown)	PD1-PDL2 (Homo sapiens, UniProt Q15116+Q9BQ51)	PD-1/PD-L1 interaction, inhibitor, ELISA			IC50	> 10 µM
CN1CCN(C(=O)N(CCCCCCC(=O)NO)c2ccc(-c3ccc4cnn(C)c4c3)cc2)CC1	HDAC10	enzyme activity, inhibitor, fluorescence			IC50	0.00114 µM
CC(C)NC(=O)NNS(=O)(=O)c1ccc2c(c1)n(C)c(=O)c(=O)n2C	Dipeptidyl peptidase 8	enzyme activity, inhibitor, fluorescence			IC50	> 100 µM
COc1ccc(-c2cc(C(F)(F)F)nc(S(=O)(=O)NCC(=O)Nc3ccc(C)cc3)n2)cc1	WRN	DNA unwinding, inhibitor, TAMRA dequenching		10 nM full-length enzyme, 5 µM trap DNA, together with: 500 nM DNA substrate, 60 µM ATP	IC50	0.385 µM
CCOC(=O)N1CCC(Oc2nc3c(c(=O)n(C)c(=O)n3C)n2Cc2cccc(C)c2)CC1	HSD17B4 (Homo sapiens, UniProt P51659)				IC50	> 57 µM
COc1cccc(C(=O)c2sc(Nc3ccc(F)cc3)nc2N)c1	GSK3 (Trypanosoma brucei, UniProt Q388M1)	enzyme activity, inhibitor, radiometric			IC50	0.05 µM and < 0.1 µM
COc1cc2nccc(Oc3ccc(NC(=S)NCc4cccnc4)c(Cl)c3)c2cc1C(N)=O	PDGFRB				IC50	0.037 µM
COCC1CN(C2CCN(c3cc(OC)c(Nc4ncc(Br)c(Nc5ccc6c(c5P(C)(C)=O)OCCO6)n4)cc3C)CC2)C1	EGFR (Homo sapiens, UniProt P00533, C797S/del746-750/T790M)	EGF-induced signalling, cellular TR-FRET		30 min, together with: EGF 50 ng/mL	IC50	0.024 µM
COc1cc2nccc(Oc3ccc(NC(=S)NCc4ccccn4)c(Cl)c3)c2cc1C(N)=O	PDGFRB				IC50	0.0733 µM
CC(C)S(=O)(=O)c1cccc(O)c(=O)c1O	Ribonuclease H1 (Homo sapiens, UniProt O60930)	enzyme activity, inhibitor			IC50	125 µM
COc1cc(Oc2ccnc3cc(OC)c(C(N)=O)cc23)ccc1NC(=S)NC1CC1	PDGFRB				IC50	0.054 µM
COc1ccc2c(c1)/C(=N\Nc1nnc3n1N=C(c1ccccc1)CS3)C(=O)N2	PDGFR	kinase activity, inhibitor			IC50	0.371 µM
NC1CCC(Nc2nccc(-c3cccnc3Oc3ccc(NS(=O)(=O)c4ccccc4Cl)c(F)c3)n2)CC1 (stereo not shown)	ERN2 RNase domain	RNase activity, inhibitor		together with: XBP1 mini-substrate	IC50	0.0044 ± 0.0007 µM
N#Cc1nc(N2CCOCC2)nc(N(Cc2ccc(F)cc2)CC2CCCCC2)n1	CTSL	enzyme activity, inhibitor, fluorescence			IC50	0.095 µM
COCCNC(=O)c1cc2c(Oc3ccc(NC(=S)NC4CC4)c(Cl)c3)ccnc2cc1OC	PDGFRB				IC50	0.241 µM
CC1(C)C2CC3C(c4ccccc4)c4c(O)c(C=O)c(O)c(C=O)c4OC3(C)C1C2 (single isomer, unassigned; (+))	PFKL (Homo sapiens, UniProt P17858, K677R)	enzyme activity, inhibitor			IC50	> 100 µM
Cn1c(=O)c2c(nc(OC3CCN(C(=O)C4CC4)CC3)n2Cc2ccccc2Cl)n(C)c1=O	ALDH1A1				IC50	0.177 ± 0.049 µM
CC1CC(=O)N(CCCCCN)N=C1c1ccc(NC(=O)N2Cc3ccncc3C2)cc1 (stereo not shown)	NAMPT (Homo sapiens, UniProt P43490)	enzyme activity, inhibitor			IC50	0.0008 µM
COc1cc2nccc(Oc3ccc4sc(NCC(C)C)nc4c3)c2cc1C(N)=O	PDGFRB				IC50	> 10 µM
CC(/C=C/c1ccc(OCC(=O)Nc2ccc(F)cc2)cc1)=N/O	PPARG (Homo sapiens, UniProt P37231)	ligand displacement, TR-FRET			IC50	10.9 µM
CCCCC/C=C/C(=O)CCc1ccc(O)c(OC)c1	mAb 4-AT4	antibody binding, indirect competitive ELISA		together with: coating antigen hapten 1-OVA	IC50	0.0257 mg/L

Repeated from above:
Structure (SMILES)	target	test	system	conditions	endpoint	value
CC(C)NC(=O)NNS(=O)(=O)c1ccc2c(c1)n(C)c(=O)c(=O)n2C	Dipeptidyl peptidase 8	enzyme activity, inhibitor, fluorescence			IC50	> 100 µM
COc1ccc(-c2cc(C(F)(F)F)nc(S(=O)(=O)NCC(=O)Nc3ccc(C)cc3)n2)cc1	WRN	DNA unwinding, inhibitor, TAMRA dequenching		10 nM full-length enzyme, 5 µM trap DNA, together with: 500 nM DNA substrate, 60 µM ATP	IC50	0.385 µM
CC1(C)C2CC3C(c4ccccc4)c4c(O)c(C=O)c(O)c(C=O)c4OC3(C)C1C2 (single isomer, unassigned; (+))	PFKL (Homo sapiens, UniProt P17858, K677R)	enzyme activity, inhibitor			IC50	> 100 µM
O=C(NCc1cn([C@H]2C[C@H](O)[C@@H](COP(=O)(O)OCC3CC(O)OC3O)O2)c(=O)[nH]c1=O)c1cc2cccc(O)c2cc1O (mixture of isomers)	DNA polymerase beta (POLB, Homo sapiens, UniProt P06746)	enzyme activity, inhibitor			IC50	18.7 µM
COCc1cc2c(cn1)CN(C(=O)Nc1nc(-c3ccc(F)cc3)ccc1N)C2	HDAC5 (Homo sapiens, UniProt Q9UQL6)	deacetylase activity, inhibitor, recombinant enzyme			IC50	> 30 µM
